Measurements of several laboratories.
Lines come from different studies, so protocols differ. ± gives the spread as reported.
BPTF bromodomain: Nucleosome-remodeling factor subunit BPTF, bromodomain (BPTF, Homo sapiens, UniProt Q12830)

`CC(=O)NCCCC[C@H](NC(=O)CNC(=O)CNC(=O)[C@H](C)NC(=O)[C@@H](N)Cc1ccc(O)cc1)C(=O)N[C@@H](C)C(=O)NCC(=O)N[C@@H](CCCCN)C(=O)N[C@@H](CC(=O)O)C(=O)N[C@@H](CO)C(=O)NCC(=O)N[C@@H](CCCCNC(C)=O)C(=O)N[C@@H](C)C(=O)N[C@@H](CCCCN)C(=O)N[C@@H](C)C(=O)N[C@@H](CCCCN)C(=O)N[C@@H](C)C(=O)N[C@H](C(=O)N[C@@H](CO)C(=O)N[C@@H](CCCNC(=N)N)C(N)=O)C(C)C` has a Kd of 760 µM (BPTF bromodomain; bromodomain binding, PrOF NMR titration; pH 7.4, 5-fluorotryptophan-labelled bromodomain, 40-50 µM).
`Cc1cc(N2CC[C@](C#N)(C3(C)CC3)C2=O)cc(C(=O)NCc2cc(F)cc(-c3cnn(C)c3)c2)n1` gave a Kd of 0.393 µM (Proline--tRNA ligase (Plasmodium falciparum, UniProt Q8I5R7); binding, MST).
With `NCCCC[C@H](NC(=O)[C@H](CC(N)=O)NC(=O)[C@H](CCCCNC(=O)[C@H](Cc1ccc(B(O)O)cc1)NC(=O)[C@H](Cc1ccc(O)cc1)NC(=O)[C@@H](N)Cc1ccc(B(O)O)cc1)NC(=O)[C@H](Cc1ccc(B(O)O)cc1)NC(=O)[C@H](Cc1ccc(O)cc1)NC(=O)[C@@H](N)Cc1ccc(B(O)O)cc1)C(=O)N[C@@H](CO)C(=O)N[C@@H](Cc1ccc(O)cc1)C(N)=O` the Kd was 26.4 ± 10.2 µM (HIV-1 RRE IIB RNA; dot blot; together with: 1000-fold excess tRNA).
For `C#CCN(CC(=O)N(CCOC)CC(=O)N(CCOC)CC(N)=O)C(=O)CN(CCOC)C(=O)CN(CCN1CCOCC1)C(=O)CN(Cc1ccc2c(c1)OCO2)C(=O)CN(CC=C)C(=O)[C@H](C)NCc1ccc(OC)cc1`, the Kd was 2.7 µM (MMP14 (Homo sapiens, UniProt P50281); binding, FP).
`COc1cc(-c2nc3ccc(C(=O)NCCCN(C)C)cc3n2C2CCC2)cc(OC)c1OC` has a Kd of 0.254 µM (BMPR1B (Homo sapiens, UniProt O00238); cell-free assay, TR-FRET).
For `COc1cc(CNC(=O)C[C@H](C)CCC=C(C)C)ccc1OCc1cn(-c2ccc([N+](=O)[O-])cc2)nn1`, the growth percent was 39.2% (SR leukaemia cells; SRB; 10 µM, 48 h).
`CC(=O)NCCCC[C@H](NC(=O)CNC(=O)[C@H](C)NC(=O)[C@H](CCCCN)NC(=O)CNC(=O)CNC(=O)[C@H](C)NC(=O)[C@@H](N)Cc1ccc(O)cc1)C(=O)N[C@@H](CC(=O)O)C(=O)N[C@@H](CO)C(=O)NCC(=O)N[C@@H](CCCCN)C(=O)N[C@@H](C)C(=O)N[C@@H](CCCCN)C(=O)N[C@@H](C)C(=O)N[C@@H](CCCCNC(C)=O)C(=O)N[C@@H](C)C(=O)N[C@H](C(=O)N[C@@H](CO)C(=O)N[C@@H](CCCNC(=N)N)C(N)=O)C(C)C` has a Kd of 370 µM (BPTF bromodomain; bromodomain binding, PrOF NMR titration; pH 7.4, 5-fluorotryptophan-labelled bromodomain, 40-50 µM).
With `CCCC[C@@H](C(=O)N1CCN([C@@H](CCC(N)=O)C(N)=O)C(=O)[C@@H]1C)N1CCN[C@@H](CC(C)C)C1=O` the Kd was 0.03 ± 0.01 µM (Histone acetyltransferase p300, CH1 domain (EP300, Homo sapiens, UniProt Q09472); binding, intrinsic tryptophan fluorescence).
For `CC(=O)N[C@@H]1[C@@H](O[C@@H]2O[C@H](C(=O)O)[C@@H](O[C@@H]3O[C@H](COS(=O)(=O)O)[C@@H](OS(=O)(=O)O)[C@H](O[C@@H]4O[C@H](C(=O)O)[C@@H](OS(=O)(=O)O)[C@H](OS(=O)(=O)O)[C@H]4OS(=O)(=O)O)[C@H]3NC(C)=O)[C@H](OS(=O)(=O)O)[C@H]2OS(=O)(=O)O)[C@H](OS(=O)(=O)O)[C@@H](COS(=O)(=O)O)O[C@H]1N=[N+]=[N-]`, the Kd was 0.051 µM (FGF1 (Homo sapiens, UniProt P05230); ligand displacement, FP).
With `C[C@]12C=C[C@@]3(CC[C@@H]4[C@@](C)(COC(=O)C(=O)O)CCC[C@@]4(C)[C@@H]3CC1)C2` the Kd was roughly 10 µM (Undecaprenyl phosphate-alpha-4-amino-4-deoxy-L-arabinose arabinosyl transferase (arnT, Pseudomonas aeruginosa, UniProt Q02R27)).
The growth percent of `COc1cc(CNC(=O)C[C@H](C)CCC=C(C)C)ccc1OCc1cn(-c2cccc([N+](=O)[O-])c2)nn1` is reported as 63.6% (OVCAR-4 ovarian cancer cells; SRB; 10 µM, 48 h).
For `CCC(=O)NCCNC(=O)/N=C(/N)NCCC[C@@H](NC(=O)C(c1ccccc1)c1ccccc1)C(=O)NCc1ccc(O)cc1`, the Kb was 0.00051 µM (NPY1R (Homo sapiens, UniProt P25929, Q120N); antagonist; human cells).
`COc1ccc(Cc2cc3c4c(c2)O[C@H](CO)[C@H](O)[C@@H]4OC3)cc1` gave a Kd of 1500 µM (Galectin-1 (LGALS1, Homo sapiens, UniProt P09382); ligand displacement, FP).
With `C[C@H](NC(=O)[C@H](Cc1ccc(O)cc1)NC(=O)[C@H](Cc1ccccc1)NC(=O)[C@H](CCC(=O)O)NC(=O)[C@H](CCC(=O)O)NC(=O)[C@H](CCC(N)=O)NC(=O)[C@H](CCCCN)NC(=O)[C@H](CC(=O)O)NS(=O)(=O)c1cccc2c(N(C)C)cccc12)C(=O)O` the Kd was 33.4 ± 1.9 µM (Rho guanine nucleotide exchange factor TIAM1, PDZ domain (TIAM1, Homo sapiens, UniProt Q13009); fluorescence anisotropy; 25 °C, PDZ domain).
`CC#Cc1cc2c3c(c1C#CC)O[C@H](CO)[C@H](O)[C@@H]3OC2` has a Kd of greater than 2000 µM (Galectin-9 (LGALS9, Homo sapiens, UniProt O00182); cell-free assay, FP).
For `CCc1nc2cc(C)c(Oc3ccc(OC(F)(F)F)cc3)cc2c(O)c1C`, the Kd was 0.015 µM (Cytochrome bc1 complex (Lucilia sericata, UniProt A7DT80); binding, MS saturation binding; Lucilia sericata, submitochondrial particles).
`CC[C@H](C)[C@H](NC(=O)[C@H](CCCCN)NC(=O)[C@H](CCCCN)NC(=O)[C@@H](NC(=O)[C@H](CCC(=O)O)NC(=O)[C@H](CCC(=O)O)NC(=O)[C@H](CCC(=O)O)NC(=O)[C@H](CO)NC(=O)[C@H](CC(C)C)NC(=O)[C@H](CC(=O)O)NC(=O)[C@H](CC(C)C)NC(=O)CNC(=O)[C@H](CCCNC(=N)N)NC(=O)[C@H](CC(C)C)NC(=O)[C@H](CO)NC(=O)CNC(=O)CNC(=O)CNC(=O)CCCC[C@@H]1SC[C@@H]2NC(=O)N[C@@H]21)C(C)C)C(=O)N[C@@H](CC(C)C)C(=O)N[C@@H](CC(=O)O)C(=O)N[C@@H](CCC(=O)O)C(=O)N[C@H](C(=O)N[C@H](C(=O)N[C@@H](CCCCN)C(=O)N[C@@H](CC(=O)O)C(=O)N1CCC[C@H]1C(=O)N[C@@H](CO)C(=O)N[C@@H](C)C(=O)O)C(C)C)[C@@H](C)CC` has a Kd of 0.036 ± 0.001 µM (Fab B11 antibody (human); binding, biolayer interferometry; together with: biotinylated peptide on tips).
`CCOC(=O)CNC(=O)/N=C(/N)NCCC[C@@H](NC(=O)C(c1ccccc1)c1ccccc1)C(=O)NCc1ccc(O)cc1` has a Kb of 0.00029 µM (NPY1R (Homo sapiens, UniProt P25929, F286A); antagonist; human cells).
With `Oc1c(I)cc(I)cc1CN1CCC(N2CCC(O)CC2)CC1` the Kd was 78 µM (Cellular tumor antigen p53, DNA-binding domain (TP53, Homo sapiens, UniProt P04637, M133L/N239Y/N268D/V203A/Y220C); ITC; pH 7.2, 20 °C, 5% DMSO).
For `[64Cu+2].c1cnc(CNCc2ccc(CN3CCCN4CCNCCCN(CC4)CC3)cc2)nc1`, the tissue uptake was 1.24 ± 0.72 %ID/g (CXCR4; NOD/SCID mouse, U87 and U87-stb-CXCR4 xenografts, heart; iv, 90 min, ex vivo).
`CSCC[C@H](NC(=O)[C@H](CCC(N)=O)NC(=O)[C@H](CCCCN)NC(=O)[C@H](CCCCN)NC(=O)[C@H](CO)NC(=O)[C@H](Cc1ccccc1)NC(=O)[C@H](Cc1ccccc1)NC(=O)[C@H](CO)NC(=O)[C@H](CC(C)C)NC(=O)[C@@H](NC(=O)CNC(=O)[C@H](CCCNC(=N)N)NC(=O)[C@H](CO)NC(=O)[C@H](C)NC(=O)[C@@H](N)CS)C(C)C)C(=O)N[C@@H](CCC(N)=O)C(=O)N[C@@H](CC(=O)O)C(=O)O` has a Kd of roughly 13 µM (DNA repair protein REV1 (Homo sapiens, UniProt Q9UBZ9); binding, SPR; pH 7.5).
For `CC(=O)NCCCC[C@H](NC(=O)[C@H](CCCCN)NC(=O)[C@H](Cc1c[nH]cn1)NC(=O)[C@H](CCCNC(=N)N)NC(C)=O)C(=O)Nc1ccc2c(C)cc(=O)oc2c1`, the Kd was 18.2 µM (SIRT1 (Homo sapiens, UniProt Q96EB6, C253S/C268S/C501S/C502S/del513-640/N226A/Q222A); peptide binding, isothermal titration calorimetry; 10% glycerol; pH 7.5, 25 °C, Q222A/N226A mutant, together with: resveratrol 0.5 mM).
The Kd of `Cc1cc2nc(NC(=O)C3CC3)sc2c(C)c1Oc1ccc(F)c(NC(=O)Cc2cccc(C(F)(F)F)c2)c1` is reported as greater than 5 µM (RIPK3 (Homo sapiens, UniProt Q9Y572); binding, competition with immobilised ligand).
`CC[C@H](C)[C@H](NC(=O)[C@H](C)NC(=O)[C@H](CC(=O)O)NC(=O)[C@H](CC(C)C)NC(=O)[C@@H](NC(=O)[C@H](CCCCN)NC(=O)[C@H](CCCCN)NC(=O)[C@@H](NC(=O)[C@H](CCC(=O)O)NC(=O)[C@H](CCC(=O)O)NC(=O)[C@H](CCC(=O)O)NC(=O)[C@H](CO)NC(=O)[C@H](CC(C)C)NC(=O)[C@H](CC(=O)O)NC(=O)[C@H](CC(C)C)NC(=O)CNC(=O)[C@H](CCCNC(=N)N)NC(=O)[C@H](CC(C)C)NC(=O)[C@H](CO)NC(=O)CNC(=O)CNC(=O)CNC(=O)CCCC[C@@H]1SC[C@@H]2NC(=O)N[C@@H]21)C(C)C)[C@@H](C)CC)C(=O)N[C@H](C(=O)N[C@@H](CCCCN)C(=O)N[C@@H](CC(=O)O)C(=O)O)C(C)C` has a Kd of 0.027 ± 0.001 µM (Fab B11 antibody (human); binding, biolayer interferometry; together with: biotinylated peptide on tips).
For `O=C(Nc1cccc(-c2csc(Nc3ccc(C(=O)O)c(O)c3)n2)c1)c1ccccc1`, the Kd was 1.78 µM (Cystathionine gamma-synthase 1, chloroplastic (CGS1, Arabidopsis thaliana, UniProt P55217); binding, microscale thermophoresis).

Repeated from above:
With `NCCCC[C@H](NC(=O)[C@H](CC(N)=O)NC(=O)[C@H](CCCCNC(=O)[C@H](Cc1ccc(B(O)O)cc1)NC(=O)[C@H](Cc1ccc(O)cc1)NC(=O)[C@@H](N)Cc1ccc(B(O)O)cc1)NC(=O)[C@H](Cc1ccc(B(O)O)cc1)NC(=O)[C@H](Cc1ccc(O)cc1)NC(=O)[C@@H](N)Cc1ccc(B(O)O)cc1)C(=O)N[C@@H](CO)C(=O)N[C@@H](Cc1ccc(O)cc1)C(N)=O` the Kd was 26.4 ± 10.2 µM (HIV-1 RRE IIB RNA; dot blot; together with: 1000-fold excess tRNA).
`CC(=O)NCCCC[C@H](NC(=O)CNC(=O)CNC(=O)[C@H](C)NC(=O)[C@@H](N)Cc1ccc(O)cc1)C(=O)N[C@@H](C)C(=O)NCC(=O)N[C@@H](CCCCN)C(=O)N[C@@H](CC(=O)O)C(=O)N[C@@H](CO)C(=O)NCC(=O)N[C@@H](CCCCNC(C)=O)C(=O)N[C@@H](C)C(=O)N[C@@H](CCCCN)C(=O)N[C@@H](C)C(=O)N[C@@H](CCCCN)C(=O)N[C@@H](C)C(=O)N[C@H](C(=O)N[C@@H](CO)C(=O)N[C@@H](CCCNC(=N)N)C(N)=O)C(C)C` has a Kd of 760 µM (BPTF bromodomain; bromodomain binding, PrOF NMR titration; pH 7.4, 5-fluorotryptophan-labelled bromodomain, 40-50 µM).
